Experimental data pooled from the literature.
A part holds a random share of what one study measured. Values joined by “and” are separate records of one study, mostly repeats; a detail may differ.
Chain of UniProt Q8NE63 (whole entry, looked up): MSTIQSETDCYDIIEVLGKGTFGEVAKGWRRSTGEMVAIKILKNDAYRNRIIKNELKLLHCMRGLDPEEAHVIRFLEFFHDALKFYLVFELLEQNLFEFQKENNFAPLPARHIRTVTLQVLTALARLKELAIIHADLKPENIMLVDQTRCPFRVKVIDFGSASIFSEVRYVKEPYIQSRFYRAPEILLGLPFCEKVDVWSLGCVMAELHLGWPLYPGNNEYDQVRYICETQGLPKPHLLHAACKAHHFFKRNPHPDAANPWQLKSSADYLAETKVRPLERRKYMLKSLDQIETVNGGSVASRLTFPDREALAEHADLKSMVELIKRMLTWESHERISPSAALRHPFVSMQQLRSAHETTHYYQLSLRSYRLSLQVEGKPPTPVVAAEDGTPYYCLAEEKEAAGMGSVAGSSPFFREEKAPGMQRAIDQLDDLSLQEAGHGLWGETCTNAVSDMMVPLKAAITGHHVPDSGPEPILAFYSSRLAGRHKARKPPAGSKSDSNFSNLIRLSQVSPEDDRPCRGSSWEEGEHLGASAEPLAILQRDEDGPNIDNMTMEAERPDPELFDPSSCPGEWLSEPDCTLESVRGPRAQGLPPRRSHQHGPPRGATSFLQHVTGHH
Chain of UniProt P10721 (whole entry, unmodified, looked up): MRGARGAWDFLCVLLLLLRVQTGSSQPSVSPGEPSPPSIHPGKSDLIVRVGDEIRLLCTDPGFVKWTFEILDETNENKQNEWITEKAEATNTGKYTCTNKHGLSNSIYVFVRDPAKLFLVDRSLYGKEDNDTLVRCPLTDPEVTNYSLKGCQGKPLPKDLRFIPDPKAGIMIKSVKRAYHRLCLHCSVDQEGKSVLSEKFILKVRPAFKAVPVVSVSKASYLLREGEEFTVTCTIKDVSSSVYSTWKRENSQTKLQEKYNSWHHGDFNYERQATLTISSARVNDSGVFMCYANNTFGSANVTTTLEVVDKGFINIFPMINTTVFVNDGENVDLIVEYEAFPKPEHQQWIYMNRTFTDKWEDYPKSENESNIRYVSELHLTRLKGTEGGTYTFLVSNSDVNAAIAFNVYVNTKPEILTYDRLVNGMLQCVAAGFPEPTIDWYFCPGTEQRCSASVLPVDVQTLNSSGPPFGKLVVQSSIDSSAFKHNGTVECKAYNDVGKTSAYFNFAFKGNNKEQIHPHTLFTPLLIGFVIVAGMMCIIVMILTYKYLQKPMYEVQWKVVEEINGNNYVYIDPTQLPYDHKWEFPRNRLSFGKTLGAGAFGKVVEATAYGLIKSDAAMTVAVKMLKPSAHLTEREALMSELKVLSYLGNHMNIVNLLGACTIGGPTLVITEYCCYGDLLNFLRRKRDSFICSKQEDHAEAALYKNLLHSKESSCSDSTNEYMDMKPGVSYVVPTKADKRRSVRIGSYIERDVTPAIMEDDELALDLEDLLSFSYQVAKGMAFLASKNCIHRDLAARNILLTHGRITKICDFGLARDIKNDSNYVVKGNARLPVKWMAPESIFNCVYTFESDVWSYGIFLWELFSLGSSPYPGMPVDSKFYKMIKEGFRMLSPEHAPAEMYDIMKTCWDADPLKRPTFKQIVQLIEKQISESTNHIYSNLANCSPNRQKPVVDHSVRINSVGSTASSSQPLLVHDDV
Chain of UniProt Q16832 (whole entry, looked up): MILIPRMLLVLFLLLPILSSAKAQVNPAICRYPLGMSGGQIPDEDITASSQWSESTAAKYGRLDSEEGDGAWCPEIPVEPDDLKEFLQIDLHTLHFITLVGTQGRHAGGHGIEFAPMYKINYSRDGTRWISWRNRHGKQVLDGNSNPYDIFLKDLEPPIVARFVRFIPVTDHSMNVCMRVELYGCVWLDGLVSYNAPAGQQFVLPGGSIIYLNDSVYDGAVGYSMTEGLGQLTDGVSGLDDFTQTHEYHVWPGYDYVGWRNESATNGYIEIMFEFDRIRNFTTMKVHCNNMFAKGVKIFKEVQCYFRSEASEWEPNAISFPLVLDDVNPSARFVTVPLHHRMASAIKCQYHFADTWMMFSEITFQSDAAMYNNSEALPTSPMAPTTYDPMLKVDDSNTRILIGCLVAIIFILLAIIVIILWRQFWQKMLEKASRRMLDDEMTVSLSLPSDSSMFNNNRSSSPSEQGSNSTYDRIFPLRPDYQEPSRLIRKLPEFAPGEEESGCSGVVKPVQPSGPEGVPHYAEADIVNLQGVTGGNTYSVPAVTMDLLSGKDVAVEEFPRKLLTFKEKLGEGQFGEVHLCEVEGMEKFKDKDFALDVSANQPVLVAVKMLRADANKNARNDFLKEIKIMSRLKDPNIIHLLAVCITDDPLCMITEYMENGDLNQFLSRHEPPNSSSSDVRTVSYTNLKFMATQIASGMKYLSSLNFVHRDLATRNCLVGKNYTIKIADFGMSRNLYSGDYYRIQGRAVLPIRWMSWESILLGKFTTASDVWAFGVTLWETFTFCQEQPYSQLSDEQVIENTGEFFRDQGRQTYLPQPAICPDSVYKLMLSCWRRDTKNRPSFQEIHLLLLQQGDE
Chain of UniProt P54760 (whole entry, looked up): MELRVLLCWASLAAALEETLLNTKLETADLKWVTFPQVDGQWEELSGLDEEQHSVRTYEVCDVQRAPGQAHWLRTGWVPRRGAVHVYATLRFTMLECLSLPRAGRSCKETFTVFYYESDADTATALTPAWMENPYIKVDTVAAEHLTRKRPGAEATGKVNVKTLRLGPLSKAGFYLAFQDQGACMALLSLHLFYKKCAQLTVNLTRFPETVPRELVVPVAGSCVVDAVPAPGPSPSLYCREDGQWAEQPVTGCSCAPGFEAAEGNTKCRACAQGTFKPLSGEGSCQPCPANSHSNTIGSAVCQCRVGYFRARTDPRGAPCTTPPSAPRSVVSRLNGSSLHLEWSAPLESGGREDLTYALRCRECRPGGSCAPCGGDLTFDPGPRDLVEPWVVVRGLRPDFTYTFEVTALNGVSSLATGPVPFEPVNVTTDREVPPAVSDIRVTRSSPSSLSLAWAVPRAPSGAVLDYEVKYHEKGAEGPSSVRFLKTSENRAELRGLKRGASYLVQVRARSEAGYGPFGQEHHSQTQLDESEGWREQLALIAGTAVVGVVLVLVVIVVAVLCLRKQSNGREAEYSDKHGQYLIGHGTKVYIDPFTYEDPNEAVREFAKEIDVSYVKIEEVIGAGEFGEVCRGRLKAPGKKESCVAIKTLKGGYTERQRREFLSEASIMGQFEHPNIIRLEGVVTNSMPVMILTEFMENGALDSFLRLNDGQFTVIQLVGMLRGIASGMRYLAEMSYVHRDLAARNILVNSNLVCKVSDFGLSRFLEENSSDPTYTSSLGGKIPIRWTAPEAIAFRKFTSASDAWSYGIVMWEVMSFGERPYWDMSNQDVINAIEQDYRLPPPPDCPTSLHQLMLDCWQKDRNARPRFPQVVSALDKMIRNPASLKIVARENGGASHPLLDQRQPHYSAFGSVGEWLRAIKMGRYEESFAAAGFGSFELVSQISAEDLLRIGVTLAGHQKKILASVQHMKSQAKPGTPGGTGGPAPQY
Chain of UniProt Q9BRS2 (whole entry, looked up): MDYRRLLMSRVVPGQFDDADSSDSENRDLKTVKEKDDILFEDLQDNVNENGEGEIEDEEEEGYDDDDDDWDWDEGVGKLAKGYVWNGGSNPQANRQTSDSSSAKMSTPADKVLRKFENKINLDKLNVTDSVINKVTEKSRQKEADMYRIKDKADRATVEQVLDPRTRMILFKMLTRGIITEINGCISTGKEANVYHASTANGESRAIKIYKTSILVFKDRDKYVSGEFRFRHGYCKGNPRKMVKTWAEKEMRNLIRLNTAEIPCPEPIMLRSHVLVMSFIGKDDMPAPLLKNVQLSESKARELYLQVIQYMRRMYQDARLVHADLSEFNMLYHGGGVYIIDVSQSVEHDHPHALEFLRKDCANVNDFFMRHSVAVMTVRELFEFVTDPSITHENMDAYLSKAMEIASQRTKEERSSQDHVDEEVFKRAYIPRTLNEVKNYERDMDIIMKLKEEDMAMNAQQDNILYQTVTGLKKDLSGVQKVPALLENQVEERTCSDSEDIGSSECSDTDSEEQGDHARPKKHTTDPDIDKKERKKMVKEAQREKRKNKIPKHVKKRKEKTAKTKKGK
Chain of UniProt Q8NG66 (whole entry, looked up): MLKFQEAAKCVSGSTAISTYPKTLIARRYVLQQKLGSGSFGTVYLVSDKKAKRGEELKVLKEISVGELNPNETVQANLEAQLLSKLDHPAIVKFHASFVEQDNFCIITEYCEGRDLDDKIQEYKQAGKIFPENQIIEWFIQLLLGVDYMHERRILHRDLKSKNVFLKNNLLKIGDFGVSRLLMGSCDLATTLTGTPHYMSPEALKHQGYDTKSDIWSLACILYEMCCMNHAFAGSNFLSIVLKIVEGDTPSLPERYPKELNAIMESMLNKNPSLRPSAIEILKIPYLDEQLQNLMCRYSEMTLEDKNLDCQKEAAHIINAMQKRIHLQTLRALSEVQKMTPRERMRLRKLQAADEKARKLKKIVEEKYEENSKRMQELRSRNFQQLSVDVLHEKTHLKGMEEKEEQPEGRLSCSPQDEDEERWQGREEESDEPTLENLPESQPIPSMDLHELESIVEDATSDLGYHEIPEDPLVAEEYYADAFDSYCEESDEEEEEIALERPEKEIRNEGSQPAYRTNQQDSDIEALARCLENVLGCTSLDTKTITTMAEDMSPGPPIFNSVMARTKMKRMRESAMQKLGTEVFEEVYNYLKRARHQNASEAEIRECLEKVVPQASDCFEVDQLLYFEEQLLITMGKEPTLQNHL
Chain of UniProt Q14012 (whole entry, looked up): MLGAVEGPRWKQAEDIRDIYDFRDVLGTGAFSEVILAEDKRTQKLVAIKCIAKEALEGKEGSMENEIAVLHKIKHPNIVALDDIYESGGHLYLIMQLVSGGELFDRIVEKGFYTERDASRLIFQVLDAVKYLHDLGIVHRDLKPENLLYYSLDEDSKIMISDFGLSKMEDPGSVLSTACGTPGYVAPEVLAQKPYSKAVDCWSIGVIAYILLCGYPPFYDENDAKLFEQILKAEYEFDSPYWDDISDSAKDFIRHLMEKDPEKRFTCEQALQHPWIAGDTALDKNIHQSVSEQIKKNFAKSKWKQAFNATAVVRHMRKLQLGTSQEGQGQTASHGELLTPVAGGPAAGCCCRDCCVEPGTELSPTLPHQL

Block 1
Organism: Sarcocystis neurona
Observed: parasite growth
Tested at: 10 µM
| Compound | inhibition [%] |
| --- | --- |
| O=C1CC2(CCCC2)CC(=O)N1CCCCN1CCN(c2ncccn2)CC1 | -24.8 |
| C[C@]12CCC(=O)C=C1CC[C@@H]1[C@@H]2CC[C@@]2(C)[C@H]1CC[C@]2(O)C(=O)CO | 19.4 |
| Cc1[nH]cnc1CN1CCc2c(c3ccccc3n2C)C1=O | -32 |
| CC1CCN(CCCC(=O)c2ccc(F)cc2)CC1.Cl | -20.6 |
| S=c1[nH]cnc2nc[nH]c12 | 26.3 |
| CN(C)CCCC1(c2ccc(F)cc2)OCc2cc(C#N)ccc21 (stereo not shown) | 3.8 |
| CN(C)CCOC(c1ccccc1)c1ccccc1 | -24.5 |
| COc1cc(C)c(Cc2cnc(N)nc2N)cc1OC | 59.6 |
| CC1(C)O[C@@H]2C[C@H]3[C@@H]4C[C@H](F)C5=CC(=O)C=C[C@]5(C)[C@H]4[C@@H](O)C[C@]3(C)[C@]2(C(=O)CO)O1 | -31.6 |

Block 2
SMILES: CC(=O)N[C@@H](Cc1c[nH]c2ccccc12)C(=O)N[C@@H](CCC(=O)C=[N+]=[N-])C(=O)OC(C)C
Species: C57BL/6 CES1-/- mice, EL4 tumour
Route: subcutaneous
Dose: 0.3 mg/kg/day DON equivalent
Time: 5 days
| assay | test system | conditions | scale | metabolite peak intensity |
| --- | --- | --- | --- | --- |
| UPLC-MS/MS, measured: imidazole propionate | EL4, tumour | normalised to tissue mass | higher = more metabolite | 598000 a.u. and 690000 a.u. and 643000 a.u. and 614000 a.u. and 925000 a.u. and 1.45e+06 a.u. |
| LC-MS/MS metabolomics, measured: 2'-deoxycytidine | EL4 tumour | normalised to tissue mass | higher = more metabolite | 2.52e+07 a.u. and 3.62e+07 a.u. and 3.56e+07 a.u. and 3.9e+07 a.u. and 6.02e+07 a.u. and 3.6e+07 a.u. |
| UPLC-MS/MS metabolomics, measured: N1-methylinosine | EL4 tumour | normalised to tissue mass | higher = more metabolite | 982000 a.u. and 1.33e+06 a.u. and 831000 a.u. and 654000 a.u. and 1.21e+06 a.u. and 879000 a.u. |
| UPLC-MS/MS, measured: 3-(4-hydroxyphenyl)lactate | EL4 tumour |  |  | 1.74e+06 a.u. and 1.51e+06 a.u. and 1.24e+06 a.u. and 785000 a.u. and 1.43e+06 a.u. and 600000 a.u. |
| LC-MS/MS metabolomics, measured: 2-methylbutyrylcarnitine (C5) | EL4 tumour | normalised to tissue mass | higher = more metabolite | 1.02e+07 a.u. and 1.08e+07 a.u. and 4.83e+06 a.u. and 3.86e+06 a.u. and 1.25e+07 a.u. and 1.46e+07 a.u. |
| UPLC-MS/MS, measured: 5-oxoproline | EL4 tumour |  |  | 9.89e+06 a.u. and 8.84e+06 a.u. and 6.41e+06 a.u. and 1.05e+07 a.u. and 9.08e+06 a.u. and 1.19e+07 a.u. |
| UPLC-MS/MS, measured: 7-methylguanine | EL4 tumour |  |  | 2.85e+06 a.u. and 1.93e+06 a.u. and 4.14e+06 a.u. and 3.75e+06 a.u. and 2.73e+06 a.u. |

Block 3
SMILES: c1ccc(N2CCN(Cc3nc4ccccc4[nH]3)CC2)nc1
Technique: competition with immobilised ligand
Tested at: 1 µM
| target | assay | remaining binding |
| --- | --- | --- |
| Phosphatidylinositol 5-phosphate 4-kinase type-2 beta (PIP4K2B, Homo sapiens, UniProt P78356) | cell-free assay | 100% |
| Dual specificity protein kinase CLK2 (CLK2, Homo sapiens, UniProt P49760) | binding | 89% |
| Homeodomain-interacting protein kinase 4 (HIPK4, Homo sapiens, UniProt Q8NE63) | binding | 91% |
| Tyrosine-protein kinase Mer (MERTK, Homo sapiens, UniProt Q12866) | binding | 90% |
| Calcium/calmodulin-dependent protein kinase type 1 (CAMK1, Homo sapiens, UniProt Q14012) | cell-free assay | 100% |
| Mast/stem cell growth factor receptor Kit (KIT, Homo sapiens, UniProt P10721, D816H) | binding | 100% |
| Serine/threonine-protein kinase RIO1 (RIOK1, Homo sapiens, UniProt Q9BRS2) | binding | 86% |
| Serine/threonine-protein kinase Nek10 (NEK10, Homo sapiens, UniProt Q6ZWH5) | binding | 100% |
| Casein kinase I isoform epsilon (CSNK1E, Homo sapiens, UniProt P49674) | binding | 100% |
| Vascular endothelial growth factor receptor 1 (FLT1, Homo sapiens, UniProt P17948) | cell-free assay | 100% |
| BMP-2-inducible protein kinase (BMP2K, Homo sapiens, UniProt Q9NSY1) | binding | 100% |
| Discoidin domain-containing receptor 2 (DDR2, Homo sapiens, UniProt Q16832) | cell-free assay | 100% |
| Serine/threonine-protein kinase Nek11 (NEK11, Homo sapiens, UniProt Q8NG66) | binding | 100% |
| Ephrin type-A receptor 1 (EPHA1, Homo sapiens, UniProt P21709) | cell-free assay | 100% |
| Serine/threonine-protein kinase DCLK2 (DCLK2, Homo sapiens, UniProt Q8N568) | binding | 98% |
| Calcium/calmodulin-dependent protein kinase type II subunit gamma (CAMK2G, Homo sapiens, UniProt Q13555) | binding | 100% |
| MAP kinase-activated protein kinase 5 (MAPKAPK5, Homo sapiens, UniProt Q8IW41) | binding | 100% |
| Calcium/calmodulin-dependent protein kinase type II subunit delta (CAMK2D, Homo sapiens, UniProt Q13557) | cell-free assay | 91% |
| ALK tyrosine kinase receptor (ALK, Homo sapiens, UniProt Q9UM73, C1156Y) | cell-free assay | 100% |
| Mast/stem cell growth factor receptor Kit (KIT, Homo sapiens, UniProt P10721) | binding | 100% |
| Receptor-type tyrosine-protein kinase FLT3 (FLT3, Homo sapiens, UniProt P36888, D835Y) | binding | 100% |
| Leukocyte tyrosine kinase receptor (LTK, Homo sapiens, UniProt P29376) | cell-free assay | 100% |
| Ribosomal protein S6 kinase alpha-4, C-terminal kinase domain (RPS6KA4, Homo sapiens, UniProt O75676) | binding | 100% |
| Mitogen-activated protein kinase 7 (MAPK7, Homo sapiens, UniProt Q13164) | binding | 100% |
| Membrane-associated tyrosine- and threonine-specific cdc2-inhibitory kinase (PKMYT1, Homo sapiens, UniProt Q99640) | binding | 100% |

Block 4
Compound: Oc1cccc(-c2nc(N3CCOCC3)c3oc4ncccc4c3n2)c1
Observed: enzyme activity
Mode: inhibitor
Tested at: 0.5 µM
Reference: control
| target | remaining activity [%] |
| --- | --- |
| Cyclin-dependent kinase 1, with cyclin B (CDK1, Homo sapiens, UniProt P06493) | 108 |
| Homeodomain-interacting protein kinase 2 (HIPK2, Homo sapiens, UniProt Q9H2X6) | 102 |
| 3-phosphoinositide-dependent protein kinase 1 (PDPK1, Homo sapiens, UniProt O15530) | 103 |
| Ribosomal protein S6 kinase alpha-6 (RPS6KA6, Homo sapiens, UniProt Q9UK32) | 98.2 |
| Tyrosine-protein kinase Blk (BLK, Homo sapiens, UniProt P51451) | 101 |
| Tyrosine-protein kinase ABL1 (ABL1, Homo sapiens, UniProt P00519) | 94.4 |
| Ephrin type-A receptor 4 (EPHA4, Homo sapiens, UniProt P54764) | 96.4 |
| Tyrosine-protein kinase receptor UFO (AXL, Homo sapiens, UniProt P30530) | 105 |
| MAP kinase-activated protein kinase 3 (MAPKAPK3, Homo sapiens, UniProt Q16644) | 93.9 |
| Testis-specific serine/threonine-protein kinase 2 (TSSK2, Homo sapiens, UniProt Q96PF2) | 102 |
| Ephrin type-B receptor 4 (EPHB4, Homo sapiens, UniProt P54760) | 104 |
| Dual specificity tyrosine-phosphorylation-regulated kinase 3 (DYRK3, Homo sapiens, UniProt O43781) | 94.9 |
| Ephrin type-B receptor 1 (EPHB1, Homo sapiens, UniProt P54762) | 89.6 |
| Phosphorylase b kinase gamma catalytic chain, skeletal muscle/heart isoform (PHKG1, Homo sapiens, UniProt Q16816) | 93.3 |
| Cyclin-dependent kinase 6, with cyclin D3 (CDK6, Homo sapiens, UniProt Q00534) | 89.7 |
| Serine/threonine-protein kinase WNK3 (WNK3, Homo sapiens, UniProt Q9BYP7) | 93.9 |
| Tyrosine-protein kinase Srms (SRMS, Homo sapiens, UniProt Q9H3Y6) | 96.2 |
| cAMP-dependent protein kinase catalytic subunit gamma (PRKACG, Homo sapiens, UniProt P22612) | 101 |
| Calcium/calmodulin-dependent protein kinase type II subunit beta (CAMK2B, Homo sapiens, UniProt Q13554) | 98.2 |
| Homeodomain-interacting protein kinase 4 (HIPK4, Homo sapiens, UniProt Q8NE63) | 107 |

Excerpt of the above (block 3):
| target | assay | remaining binding |
| --- | --- | --- |
| Ephrin type-A receptor 1 (EPHA1, Homo sapiens, UniProt P21709) | cell-free assay | 100% |
| Serine/threonine-protein kinase DCLK2 (DCLK2, Homo sapiens, UniProt Q8N568) | binding | 98% |
| Calcium/calmodulin-dependent protein kinase type II subunit gamma (CAMK2G, Homo sapiens, UniProt Q13555) | binding | 100% |
| MAP kinase-activated protein kinase 5 (MAPKAPK5, Homo sapiens, UniProt Q8IW41) | binding | 100% |
| Calcium/calmodulin-dependent protein kinase type II subunit delta (CAMK2D, Homo sapiens, UniProt Q13557) | cell-free assay | 91% |
| ALK tyrosine kinase receptor (ALK, Homo sapiens, UniProt Q9UM73, C1156Y) | cell-free assay | 100% |
| Mast/stem cell growth factor receptor Kit (KIT, Homo sapiens, UniProt P10721) | binding | 100% |
| Receptor-type tyrosine-protein kinase FLT3 (FLT3, Homo sapiens, UniProt P36888, D835Y) | binding | 100% |
